Results collected from several papers.
Numbered parts are unrelated; each lists some results of a single study.
UniProt P36897, sequence (whole entry, looked up): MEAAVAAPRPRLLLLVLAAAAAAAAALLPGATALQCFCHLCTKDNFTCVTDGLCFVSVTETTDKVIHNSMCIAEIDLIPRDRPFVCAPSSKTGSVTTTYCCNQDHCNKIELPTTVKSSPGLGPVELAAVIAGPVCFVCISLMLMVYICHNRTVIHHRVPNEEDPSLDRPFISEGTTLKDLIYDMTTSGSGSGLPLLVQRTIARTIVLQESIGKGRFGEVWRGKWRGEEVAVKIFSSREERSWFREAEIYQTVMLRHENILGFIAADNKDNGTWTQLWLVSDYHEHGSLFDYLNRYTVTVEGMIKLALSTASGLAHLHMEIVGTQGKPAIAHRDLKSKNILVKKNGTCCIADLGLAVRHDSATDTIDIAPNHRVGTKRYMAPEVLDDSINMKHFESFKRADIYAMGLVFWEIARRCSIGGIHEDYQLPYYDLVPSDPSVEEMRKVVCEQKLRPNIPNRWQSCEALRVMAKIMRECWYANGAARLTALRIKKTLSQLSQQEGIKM
UniProt Q9UIK4, sequence (whole entry, looked up): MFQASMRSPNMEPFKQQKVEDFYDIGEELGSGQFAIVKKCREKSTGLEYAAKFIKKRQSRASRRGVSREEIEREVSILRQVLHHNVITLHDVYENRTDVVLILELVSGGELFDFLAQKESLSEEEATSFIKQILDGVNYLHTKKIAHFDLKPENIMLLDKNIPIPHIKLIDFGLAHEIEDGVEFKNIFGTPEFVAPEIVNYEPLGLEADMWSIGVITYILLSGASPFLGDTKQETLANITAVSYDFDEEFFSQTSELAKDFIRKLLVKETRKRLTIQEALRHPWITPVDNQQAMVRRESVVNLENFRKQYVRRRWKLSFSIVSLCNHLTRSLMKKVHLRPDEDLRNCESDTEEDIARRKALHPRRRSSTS
UniProt O94921, sequence (whole entry, looked up): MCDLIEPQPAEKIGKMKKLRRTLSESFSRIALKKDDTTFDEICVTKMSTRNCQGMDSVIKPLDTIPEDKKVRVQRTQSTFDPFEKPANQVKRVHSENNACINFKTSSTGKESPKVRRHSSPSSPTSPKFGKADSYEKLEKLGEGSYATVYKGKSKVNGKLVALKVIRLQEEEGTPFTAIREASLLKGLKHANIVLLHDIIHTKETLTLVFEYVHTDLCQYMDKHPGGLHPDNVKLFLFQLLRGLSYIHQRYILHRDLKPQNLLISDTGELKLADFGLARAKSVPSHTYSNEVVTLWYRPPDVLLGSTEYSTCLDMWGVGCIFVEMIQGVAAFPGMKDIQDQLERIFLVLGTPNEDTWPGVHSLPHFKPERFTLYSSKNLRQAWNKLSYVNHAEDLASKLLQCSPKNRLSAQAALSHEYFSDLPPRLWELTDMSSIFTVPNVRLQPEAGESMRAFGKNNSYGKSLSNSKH
UniProt O75676, sequence (whole entry, looked up): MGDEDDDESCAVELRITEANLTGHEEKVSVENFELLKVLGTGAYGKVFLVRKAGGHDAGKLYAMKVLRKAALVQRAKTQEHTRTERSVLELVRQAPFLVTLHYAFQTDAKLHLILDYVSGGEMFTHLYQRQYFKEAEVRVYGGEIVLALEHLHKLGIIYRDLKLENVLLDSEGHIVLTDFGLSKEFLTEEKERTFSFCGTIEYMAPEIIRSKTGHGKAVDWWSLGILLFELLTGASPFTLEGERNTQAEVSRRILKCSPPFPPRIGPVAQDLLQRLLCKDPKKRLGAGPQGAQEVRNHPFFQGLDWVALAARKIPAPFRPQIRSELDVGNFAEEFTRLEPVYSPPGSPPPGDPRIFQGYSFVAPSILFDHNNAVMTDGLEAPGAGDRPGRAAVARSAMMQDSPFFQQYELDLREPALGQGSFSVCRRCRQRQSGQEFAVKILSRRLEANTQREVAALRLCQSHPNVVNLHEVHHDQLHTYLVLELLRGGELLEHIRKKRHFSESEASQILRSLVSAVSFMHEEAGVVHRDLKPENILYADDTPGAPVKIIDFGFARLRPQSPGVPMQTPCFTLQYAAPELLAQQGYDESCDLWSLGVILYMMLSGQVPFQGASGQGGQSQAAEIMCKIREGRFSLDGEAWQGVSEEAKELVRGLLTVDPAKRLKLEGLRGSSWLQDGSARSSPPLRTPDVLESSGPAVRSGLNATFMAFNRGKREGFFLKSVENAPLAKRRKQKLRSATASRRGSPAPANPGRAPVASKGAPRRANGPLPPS
UniProt Q9P2K8, sequence (whole entry, unmodified, looked up): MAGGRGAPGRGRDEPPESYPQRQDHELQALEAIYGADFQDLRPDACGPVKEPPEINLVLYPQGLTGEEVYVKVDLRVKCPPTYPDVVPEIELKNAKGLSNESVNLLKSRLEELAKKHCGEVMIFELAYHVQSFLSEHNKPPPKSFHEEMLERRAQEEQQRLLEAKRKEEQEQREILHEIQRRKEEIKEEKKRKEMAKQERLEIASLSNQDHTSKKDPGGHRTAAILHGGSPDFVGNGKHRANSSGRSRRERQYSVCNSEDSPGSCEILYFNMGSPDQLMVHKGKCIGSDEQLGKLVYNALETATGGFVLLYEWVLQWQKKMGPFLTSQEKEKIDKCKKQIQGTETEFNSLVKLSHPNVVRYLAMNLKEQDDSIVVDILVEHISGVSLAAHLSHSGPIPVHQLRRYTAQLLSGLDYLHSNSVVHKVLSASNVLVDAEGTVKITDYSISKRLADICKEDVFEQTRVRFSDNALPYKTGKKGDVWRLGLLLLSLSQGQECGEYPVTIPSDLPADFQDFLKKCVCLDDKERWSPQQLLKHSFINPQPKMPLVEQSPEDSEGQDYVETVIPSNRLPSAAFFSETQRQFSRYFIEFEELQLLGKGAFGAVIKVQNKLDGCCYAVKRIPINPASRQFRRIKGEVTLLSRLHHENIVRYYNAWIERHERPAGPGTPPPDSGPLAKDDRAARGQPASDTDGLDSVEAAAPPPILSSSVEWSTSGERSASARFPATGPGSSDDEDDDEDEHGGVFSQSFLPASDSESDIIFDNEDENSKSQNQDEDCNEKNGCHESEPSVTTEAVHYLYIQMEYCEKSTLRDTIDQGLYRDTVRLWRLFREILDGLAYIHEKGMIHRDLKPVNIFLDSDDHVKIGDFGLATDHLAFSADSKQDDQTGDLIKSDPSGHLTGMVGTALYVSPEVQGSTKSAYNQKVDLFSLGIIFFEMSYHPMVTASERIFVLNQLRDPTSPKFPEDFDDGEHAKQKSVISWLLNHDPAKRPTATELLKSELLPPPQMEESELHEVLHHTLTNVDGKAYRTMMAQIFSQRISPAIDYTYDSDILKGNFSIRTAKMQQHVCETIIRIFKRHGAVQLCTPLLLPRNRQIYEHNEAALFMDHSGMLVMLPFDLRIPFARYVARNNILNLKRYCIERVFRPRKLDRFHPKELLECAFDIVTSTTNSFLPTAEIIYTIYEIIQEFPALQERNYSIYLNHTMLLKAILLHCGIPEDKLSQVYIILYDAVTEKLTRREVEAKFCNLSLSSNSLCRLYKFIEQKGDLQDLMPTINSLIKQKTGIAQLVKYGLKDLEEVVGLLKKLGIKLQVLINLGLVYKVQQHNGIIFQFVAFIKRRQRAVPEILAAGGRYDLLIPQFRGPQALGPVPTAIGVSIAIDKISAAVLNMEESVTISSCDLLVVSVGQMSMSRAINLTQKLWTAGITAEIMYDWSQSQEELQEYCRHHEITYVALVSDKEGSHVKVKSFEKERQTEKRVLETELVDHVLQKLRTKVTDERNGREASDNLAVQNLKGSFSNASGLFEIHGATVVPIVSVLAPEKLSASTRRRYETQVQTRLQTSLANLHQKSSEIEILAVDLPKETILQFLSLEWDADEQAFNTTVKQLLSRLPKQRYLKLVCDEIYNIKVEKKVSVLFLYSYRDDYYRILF
UniProt P05771, sequence (whole entry, looked up): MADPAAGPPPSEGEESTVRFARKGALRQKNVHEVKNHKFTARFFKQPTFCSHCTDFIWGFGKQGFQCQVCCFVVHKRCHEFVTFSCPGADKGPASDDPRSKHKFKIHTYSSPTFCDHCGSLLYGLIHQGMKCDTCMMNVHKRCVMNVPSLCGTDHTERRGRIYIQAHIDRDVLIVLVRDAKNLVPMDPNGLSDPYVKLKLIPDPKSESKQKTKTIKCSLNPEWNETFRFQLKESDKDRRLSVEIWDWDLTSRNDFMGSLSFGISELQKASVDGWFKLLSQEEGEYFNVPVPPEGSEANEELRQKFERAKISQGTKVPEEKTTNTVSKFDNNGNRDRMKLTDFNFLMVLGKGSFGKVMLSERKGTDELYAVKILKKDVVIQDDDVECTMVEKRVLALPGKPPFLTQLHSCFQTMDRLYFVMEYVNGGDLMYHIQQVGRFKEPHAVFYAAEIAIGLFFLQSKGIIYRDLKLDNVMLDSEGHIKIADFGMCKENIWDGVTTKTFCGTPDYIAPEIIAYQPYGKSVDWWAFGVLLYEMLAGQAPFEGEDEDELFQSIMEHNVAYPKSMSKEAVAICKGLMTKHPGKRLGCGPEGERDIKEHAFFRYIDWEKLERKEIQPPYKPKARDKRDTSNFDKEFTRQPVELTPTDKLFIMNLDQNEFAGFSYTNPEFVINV
UniProt P20794, sequence (whole entry, looked up): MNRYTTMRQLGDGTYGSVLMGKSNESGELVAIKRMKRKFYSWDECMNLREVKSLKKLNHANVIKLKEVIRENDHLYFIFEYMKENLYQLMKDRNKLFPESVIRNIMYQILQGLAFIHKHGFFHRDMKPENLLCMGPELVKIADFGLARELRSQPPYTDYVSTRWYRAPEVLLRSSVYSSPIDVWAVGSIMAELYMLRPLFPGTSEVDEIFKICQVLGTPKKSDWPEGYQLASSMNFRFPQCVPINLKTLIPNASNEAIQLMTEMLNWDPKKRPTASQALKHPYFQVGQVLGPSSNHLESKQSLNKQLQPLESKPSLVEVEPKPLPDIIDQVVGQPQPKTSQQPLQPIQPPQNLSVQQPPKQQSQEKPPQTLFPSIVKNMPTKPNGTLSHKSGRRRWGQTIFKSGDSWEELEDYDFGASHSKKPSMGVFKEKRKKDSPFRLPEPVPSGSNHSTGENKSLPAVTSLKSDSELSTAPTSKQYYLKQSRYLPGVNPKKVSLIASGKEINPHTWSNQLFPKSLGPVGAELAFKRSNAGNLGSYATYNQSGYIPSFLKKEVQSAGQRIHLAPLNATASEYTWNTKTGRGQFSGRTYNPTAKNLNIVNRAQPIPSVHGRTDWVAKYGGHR

Sample 1
SMILES: Nc1c(C(=O)NCc2ccc(C(=O)NCCCC3CCCCC3)cc2)cnn1-c1ccccc1
Effect on: cell-free assay
Technique: competition with immobilised ligand
Concentration: 0.1 µM
Endpoint: remaining binding
target = PIK3CA (Homo sapiens, UniProt P42336, E545K); value = 91%
target = MAP3K15 (Homo sapiens, UniProt Q6ZN16); value = 100%
target = Ribosomal protein S6 kinase alpha-4, C-terminal kinase domain (RPS6KA4, Homo sapiens, UniProt O75676); value = 98%
target = SIK2 (Homo sapiens, UniProt Q9H0K1); value = 100%
target = FGFR2 (Homo sapiens, UniProt P21802); value = 100%
target = Tyrosine-protein kinase ABL1, phosphorylated (ABL1, Homo sapiens, UniProt P00519, H396P); value = 100%
target = PKN1 (Homo sapiens, UniProt Q16512); value = 96%
target = Tyrosine-protein kinase JAK2, JH1 (JAK2, Homo sapiens, UniProt O60674); value = 100%
target = GRK7 (Homo sapiens, UniProt Q8WTQ7); value = 100%
target = MAK (Homo sapiens, UniProt P20794); value = 100%
target = MAPKAPK5 (Homo sapiens, UniProt Q8IW41); value = 93%
target = NEK5 (Homo sapiens, UniProt Q6P3R8); value = 99%
target = BRSK1 (Homo sapiens, UniProt Q8TDC3); value = 94%
target = CDK14 (Homo sapiens, UniProt O94921); value = 100%
target = CSNK2A1 (Homo sapiens, UniProt P68400); value = 70%
target = CDK15 (Homo sapiens, UniProt Q96Q40); value = 95%
target = Aurora kinase A (AURKA, Homo sapiens, UniProt O14965); value = 100%
target = TEK (Homo sapiens, UniProt Q02763); value = 100%
target = AXL (Homo sapiens, UniProt P30530); value = 87%
target = Tyrosine-protein kinase ABL1, phosphorylated (ABL1, Homo sapiens, UniProt P00519, T315I); value = 100%
target = HASPIN (Homo sapiens, UniProt Q8TF76); value = 100%
target = CSNK1G3 (Homo sapiens, UniProt Q9Y6M4); value = 100%
target = EIF2AK2 (Homo sapiens, UniProt P19525); value = 54%
target = FLT3 (Homo sapiens, UniProt P36888, K663Q); value = 100%
target = eIF-2-alpha kinase GCN2, C-terminal kinase domain (EIF2AK4, Homo sapiens, UniProt Q9P2K8, S808G); value = 100%

Sample 2
Host: human
Sample: microsomes or S9
Concentration: 2 µM
Time: 0.5 h
Endpoint: remaining compound
SMILES = CC1(C)CC(O)CC(C)(C)N1CC(O)COc1cccc2ccccc12 (stereo not shown); value = 0.0346%
SMILES = CC(C)(C)OC(=O)N[C@@H](CC(=O)N1N=CCC1C(=O)OCc1ccccc1)Cc1cc(F)c(F)cc1F (stereo partly shown); value = 98%
SMILES = O=C(c1ccc2ncccc2c1)c1cncc(Br)c1Cl; value = 0%
SMILES = COc1cccc(-c2csc3[nH]cnc(=O)c23)c1; value = 26.3%
SMILES = O=c1c2ccccc2nc(-c2ccco2)n1-c1cccc2ccccc12; value = 90.9%
SMILES = O=C(c1ccc(=O)[nH]c1)N1CCN(c2ncc(Cl)cn2)CC1; value = > 100%
SMILES = CCNC(=O)C(C)N(c1ccccc1)S(C)(=O)=O (stereo not shown); value = 92.7%
SMILES = Cc1nc(C)c(S(=O)(=O)N(C)CC(C)(C)O)s1; value = 68.8%
SMILES = COc1ccc(S(=O)(=O)N(C)c2ccc(C(=O)Nc3ccccc3-c3ccccc3)cc2)cc1; value = 75.2%
SMILES = COC(=O)c1cc(Cl)c(NC(=O)c2cc(OC)c(OC)c(OC)c2)cc1OC; value = 35.2%

Sample 3
Compound: COc1cc2c(N3CCN(C(=O)Nc4ccc(OC(C)C)cc4)CC3)ncnc2cc1OCCCN1CCCCC1
Effect on: enzyme activity
Action: inhibitor
Concentration: 0.5 µM
Reference: control
Endpoint: remaining activity
target = IKBKB (Homo sapiens, UniProt O14920); value = 97.3%
target = Cyclin-dependent kinase 4, with cyclin D1 (CDK4, Homo sapiens, UniProt P11802); value = 92.5%
target = CAMK2D (Homo sapiens, UniProt Q13557); value = 106%
target = OXSR1 (Homo sapiens, UniProt O95747); value = 95.8%
target = DAPK1 (Homo sapiens, UniProt P53355); value = 103%
target = DAPK2 (Homo sapiens, UniProt Q9UIK4); value = 104%
target = STK11 (Homo sapiens, UniProt Q15831); value = 104%
target = TGFBR1 (Homo sapiens, UniProt P36897); value = 102%
target = GRK3 (Homo sapiens, UniProt P35626); value = 97.6%
target = PRKCA (Homo sapiens, UniProt P17252); value = 109%
target = MAPK9 (Homo sapiens, UniProt P45984); value = 103%
target = Cyclin-dependent kinase 5, with p25 (CDK5, Homo sapiens, UniProt Q00535); value = 104%
target = Protein kinase C beta type, isoform beta-I (PRKCB, Homo sapiens, UniProt P05771); value = 98.4%
target = CHEK2 (Homo sapiens, UniProt O96017); value = 100%
target = cGMP-dependent protein kinase 1, isoform beta (PRKG1, Homo sapiens, UniProt Q13976); value = 102%
target = CAMKK2 (Homo sapiens, UniProt Q96RR4); value = 101%
target = Tyrosine-protein kinase Lyn, isoform B (LYN, Homo sapiens, UniProt P07948); value = 103%
target = PRKACA (Homo sapiens, UniProt P17612); value = 103%

Sample 4
Organism: Sarcocystis neurona
Effect on: parasite growth
Concentration: 10 µM
Time: 96 h
Setting: secondary screen
Endpoint: inhibition
SMILES = COc1cc(C(=O)NS(=O)(=O)c2ccccc2C)ccc1Cc1cn(C)c2ccc(NC(=O)OC3CCCC3)cc12; value = -37.7%
SMILES = CO[C@H]1/C=C/O[C@@]2(C)Oc3c(C)c(O)c4c(O)c(c(/C=N/N5CCN(C6CCCC6)CC5)c(O)c4c3C2=O)NC(=O)/C(C)=C\C=C\[C@H](C)[C@H](O)[C@@H](C)[C@@H](O)[C@@H](C)[C@H](OC(C)=O)[C@@H]1C; value = -22%
SMILES = CCCN1C[C@H](CSC)C[C@@H]2c3cccc4[nH]cc(c34)C[C@H]21; value = -20.3%
SMILES = CCCNC(C)C(=O)Nc1ccccc1C (stereo not shown); value = -10.8%
SMILES = NS(=O)(=O)c1cc2c(cc1Cl)N=CNS2(=O)=O; value = -12%
SMILES = Nc1ncnc2c1ncn2[C@@H]1O[C@H](CO)[C@@H](O)[C@@H]1O; value = -20.2%
SMILES = CCOc1ccc2ccccc2c1C(=O)N[C@@H]1C(=O)N2[C@@H]1SC(C)(C)[C@@H]2C(=O)O; value = -22.6%
SMILES = CC1=NS(=O)(=O)c2cc(Cl)ccc2N1; value = -17.5%
